{"data": "Results of several laboratories", "note": "A part holds a random share of what one study measured."}
{"data": "Study 1", "target": "Interferon regulatory factor 5, full length, phosphomimetic (IRF5, Homo sapiens, UniProt Q13568-2, residues 1-514, K96S/S451D/S453D/S456D/S462D)", "technique": "protein-binding microarray", "molecule type": "double-stranded DNA, one strand shown", "medium": "in vitro", "tested at": "250 nM", "setting": "60-bp whole probe", "added": "salmon DNA 0.4 mg/ml", "relative to": "random background probes", "reading": "higher = stronger binding", "shared flanks, not repeated": "GCCTAGCAC … GTCTTGATTCGCTTGACGCTGCTG"}
{"Sequence": "GACGATTTCGGGATTGGAGACGTGCTA", "log fluorescence": "2.34 z-score"}
{"Sequence": "GAAAATTTCTTCCTCCCCCTGTGCTAG", "log fluorescence": "1.1 z-score"}
{"Sequence": "TCAATTCCAGGGTTTTATACTGTGCTA", "log fluorescence": "0.287 z-score"}
{"Sequence": "TTGTTTTTCATTATTGTCTTGTGCTAG", "log fluorescence": "2.7 z-score"}
{"Sequence": "TGATCCAAAAAGTGTGAGAAGTGCTAG", "log fluorescence": "0.363 z-score"}
{"Sequence": "GAAAGCCTGCTGCCAGTCTGGTGCTAG", "log fluorescence": "0.351 z-score"}
{"Sequence": "GACGGACTGCCTTTCCTGACGTGCTAG", "log fluorescence": "-0.558 z-score"}
{"Sequence": "GACGATTGCAGACTGGAGACGTGCTAG", "log fluorescence": "-0.23 z-score"}
{"Sequence": "GCCGGTCTCCTTTTCCTGACGTGCTAG", "log fluorescence": "0.0607 z-score"}
{"Sequence": "TTAGGTTTCGGTCACGGTTAGTGCTAG", "log fluorescence": "10.5 z-score"}
{"Sequence": "TTGGGTCTCGGTTTCGGTTAGTGCTAG", "log fluorescence": "8.81 z-score"}
{"Sequence": "GACGGTGTCCTTTTCCTGACGTGCTAG", "log fluorescence": "0.057 z-score"}
{"Sequence": "TTAGGACTGGGGTATCGGTTAGTGCTA", "log fluorescence": "2.24 z-score"}
{"Sequence": "GACGATTCCCGTTTCGAGACGTGCTAG", "log fluorescence": "2.37 z-score"}
{"Sequence": "GACAAACTGAGTCTCGAGACGTGCTAG", "log fluorescence": "-0.0903 z-score"}
{"Sequence": "TTACGTCTCGGACTGGGTTAGTGCTAG", "log fluorescence": "0.258 z-score"}
{"Sequence": "GACGGTTTCGCGTTTCGGGACGTGCTA", "log fluorescence": "3.4 z-score"}
{"Sequence": "GACGGACTGGGAACTGGGGACGTGCTA", "log fluorescence": "-0.678 z-score"}
{"Sequence": "TCAATTTTCATTTTCCAACTGTGCTAG", "log fluorescence": "2.85 z-score"}
{"data": "Study 2", "target": "Histone acetyltransferase KAT6A, winged helix 2, GST fusion (KAT6A, Homo sapiens, UniProt Q92794, residues 85-181)", "technique": "protein binding microarray", "molecule type": "double-stranded DNA, one strand shown", "medium": "in vitro", "tested at": "not given", "setting": "8-mer, flanks averaged, mean of 2 arrays, mostly near background", "relative to": "not given", "reading": "higher = stronger binding", "Target sequence (chain)": "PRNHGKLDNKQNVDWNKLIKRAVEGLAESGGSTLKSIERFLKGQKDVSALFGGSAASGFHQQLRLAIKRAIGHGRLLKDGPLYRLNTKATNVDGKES"}
{"Sequence": "CTTAAAAC", "E-score": 0.169}
{"Sequence": "GATGGAAC", "E-score": 0.0429}
{"Sequence": "AATCGGAA", "E-score": 0.083}
{"Sequence": "AGGTCAAC", "E-score": 0.0397}
{"Sequence": "GATGCCGC", "E-score": 0.0435}
{"Sequence": "CTTCGTCA", "E-score": 0.0315}
{"Sequence": "CGCAAACA", "E-score": 0.0442}
{"Sequence": "CCCGAGGC", "E-score": 0.0177}
{"Sequence": "CACCGGCG", "E-score": 0.103}
{"Sequence": "GTTTATAA", "E-score": 0.0188}
{"Sequence": "CATTGGAC", "E-score": -0.0489}
{"Sequence": "AACCCTGG", "E-score": 0.0719}
{"Sequence": "CAACGTTA", "E-score": -0.171}
{"Sequence": "CTCTAATA", "E-score": -0.0138}
{"Sequence": "CGCTGCTA", "E-score": 0.00754}
{"Sequence": "GCGGTAAA", "E-score": 0.104}
{"Sequence": "CCCACTCC", "E-score": -0.0535}
{"Sequence": "ATATAAAC", "E-score": 0.0536}
{"Sequence": "CTGCGATC", "E-score": -0.0192}
{"Sequence": "AGGTACAA", "E-score": 0.00552}
{"Sequence": "TGTGGGAA", "E-score": -0.0138}
{"Sequence": "CGATCCAA", "E-score": -0.0184}
{"Sequence": "CTGGTTCA", "E-score": 0.0279}
{"Sequence": "CCGCATAG", "E-score": 0.119}
{"Sequence": "GGTACAGA", "E-score": 0.0408}
{"data": "Study 3", "target": "RNA binding protein fox-1 homolog 2, RRM domain, GST-SBP tag (RBFOX2, Homo sapiens, UniProt O43251-10, residues 100-194)", "technique": "RNA Bind-n-Seq", "molecule type": "RNA", "medium": "in vitro", "tested at": "365 nM", "setting": "natural RNA segment, single round, ends assumed", "relative to": "no-protein control", "reading": "higher = stronger binding", "shared flanks, not repeated": "GGGAGUUCUACAGUCCGACGAUC … UGGAAUUCUCGGGUGCCAA", "Residues (chain)": "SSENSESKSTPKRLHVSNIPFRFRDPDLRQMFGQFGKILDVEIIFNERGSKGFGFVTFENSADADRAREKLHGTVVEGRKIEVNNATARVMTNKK"}
{"Sequence": "GCAAUCCUUACAAAUGAUUGCUUUUAAAAUUUUAAGCUAGGAAAAGAAAUCUAUAGAAAGUGUUCUGUUACAAAAUGUAACUGUUACCAUUGGAAAUUUCACGUCAUAGG", "RBNS enrichment (R)": 0.493}
{"Sequence": "GUGUCCCCCAGGUUCCGAAGAAGAUGCUCCAGCAACACAGCCUGGGCCCCAGCUCGCGGGACCCGACCCCCCGUGGGCUCCCGUGUUUUGUAGGAGACUUGCCAGAGCCG", "RBNS enrichment (R)": 0.358}
{"Sequence": "UAUAACCACGACUCUGGUGGGGAAAACCGUUUUUUAAAGGACACACACACACACAGCGAUGCAUCUCUCUCUAAAGCUCAGCCACGGCUGCGGCAAGGUCCCAGCGGUCG", "RBNS enrichment (R)": 0.865}
{"Sequence": "UAACCACAGCCUCACAGCUGGUCUCUGGCAGUGGUUAGGACAGGCGGGAGCAACCACAAUCAAACCUACAGGGCAGGCCCUAGGGUUUGUUAUCCCACGUUCAGGCCAGG", "RBNS enrichment (R)": 0.428}
{"Sequence": "GGGAGUGGAAGAAGGGAAGCCUUUUGCAAAUAGUAGAGUAUCAGUUGCAGGUGCCAAUGACUAACUUUUUGAAUUCUAUGUUGGCAUUAACAAUAAAGCAUUUUGCAAAC", "RBNS enrichment (R)": 1.03}
{"Sequence": "ACCUUCUUUGGGCCUCGGCCUCCUAAUCUGGGUAAUGGGGAGGACUUCAUUGGCAUUGUUAGUCCCACAGGCCAAGGAUAAGGUUGAAAUGAGACGGCUUGUGUGUGAAA", "RBNS enrichment (R)": 0.789}
{"Sequence": "CUCUCCGAAGCCCCUGGACCUGUUUCCUUGUCAUUUGACCCUCGUCUGUGCCCGCGGAGACCUCCUCUGACCAAGGGGCACUAGUAUGCCUUGCGCUAUCAUGACUGACU", "RBNS enrichment (R)": 0.293}
{"Sequence": "UGGGGAUAGUACUAAUUAUGAAAUUUCCUGCAGGAUCUGUUCUAAGGUUGAAAUUUAGCCCAGCUCUAGGCAUUUUACAAAUUAUUUUAAGAACAGUCACUCUUGAUUGU", "RBNS enrichment (R)": 0.418}
{"data": "Study 4", "target": "Fragile X messenger ribonucleoprotein 1, C-terminal low-complexity region (Fmr1, Mus musculus, UniProt P35922)", "technique": "RNA Bind-n-Seq", "molecule type": "RNA", "medium": "in vitro", "tested at": "200 nM", "setting": "whole 134-nt RNA, ends assumed", "added": "150 mM LiCl", "relative to": "input library", "reading": "higher = stronger binding", "library": "7-deaza-guanosine replaces G", "shared flanks, not repeated": "GGGAGUUCUACAGUCCGACGAUC … UGGAAUUCUCGGGUGUCAAGG"}
{"Sequence": "CACAGACAACACGCACCAAAACAGACACAGAGGGAAGGGGUUGGGAUGGGGACAGGGUGCACAGCAGGGCGGGGUAGGACCCCAGCCCCU", "log2 enrichment": 1.04}
{"Sequence": "UACCUGAUCAAUGACAGAGCCUUCUGAGGACAUUCCAAGACAGUAUACAGUCCUGUGGUCUCCUUGGAAAUCCGUCUAGUUAACAUUUCA", "log2 enrichment": -2.07}
{"Sequence": "CUGUGCUACACAUCGUAUGUACCGAAUCGGGGCCCCCCCGGCCCCCCCGGGCCCCCCCGGGGAAAGUAUUAUGUUACGCCGUUCGGAUCU", "log2 enrichment": 0.34}
{"Sequence": "AAGUCCUGUGCUACACAUCGUAUGUACCGAAUCGGUUUUGGUUUUGGGGUUUUGGGGAAAGUAUUAUGUUACGCCGUUCGGAUCUGCACU", "log2 enrichment": -0.965}
{"Sequence": "CAAGUCCUGUGCUACACAUCGUAUGUACCGAAUCGGGAAAAAGGGUUUGGGUGGGAAAGUAUUAUGUUACGCCGUUCGGAUCUGCACUUC", "log2 enrichment": -1.57}
{"Sequence": "GUCCUGUGCUACACAUCGUAUGUACCGAAUCGGGGAAAAAGGGGAGGGGUUUUUGGGGAAAGUAUUAUGUUACGCCGUUCGGAUCUGCAC", "log2 enrichment": 0.201}
{"Sequence": "UCCUGUGCUACACAUCGUAUGUACCGAAUCGGCCCCCCGGGGCCCCCCGGGCCCCCCGGAAAGUAUUAUGUUACGCCGUUCGGAUCUGCA", "log2 enrichment": -1.83}
{"Sequence": "AAGUCCUGUGCUACACAUCGUAUGUACCGAAUCGGGAAAAGGGAAAAGGGAAAAGGGAAAGUAUUAUGUUACGCCGUUCGGAUCUGCACU", "log2 enrichment": 0.146}
{"note": "Excerpt of the above (study 1):"}
{"Sequence": "TGATCCAAAAAGTGTGAGAAGTGCTAG", "log fluorescence": "0.363 z-score"}
{"Sequence": "GAAAGCCTGCTGCCAGTCTGGTGCTAG", "log fluorescence": "0.351 z-score"}
{"Sequence": "GACGGACTGCCTTTCCTGACGTGCTAG", "log fluorescence": "-0.558 z-score"}
{"Sequence": "GACGATTGCAGACTGGAGACGTGCTAG", "log fluorescence": "-0.23 z-score"}
{"Sequence": "GCCGGTCTCCTTTTCCTGACGTGCTAG", "log fluorescence": "0.0607 z-score"}
{"Sequence": "TTAGGTTTCGGTCACGGTTAGTGCTAG", "log fluorescence": "10.5 z-score"}
{"Sequence": "TTGGGTCTCGGTTTCGGTTAGTGCTAG", "log fluorescence": "8.81 z-score"}
{"Sequence": "GACGGTGTCCTTTTCCTGACGTGCTAG", "log fluorescence": "0.057 z-score"}
{"Sequence": "TTAGGACTGGGGTATCGGTTAGTGCTA", "log fluorescence": "2.24 z-score"}
